Assay results of several laboratories.
Parts stem from different laboratories: compare values within a part only.

Set 1
Target: RNA binding protein fox-1 homolog 2, RRM domain, GST-SBP tag (RBFOX2, Homo sapiens, UniProt O43251-10, residues 100-194)
Method: RNA Bind-n-Seq
Molecule type: RNA
Matrix: in vitro
Concentration: 365 nM
Notes: natural RNA segment, single round, ends assumed
Baseline: no-protein control
Direction: higher = stronger binding
Target sequence (chain): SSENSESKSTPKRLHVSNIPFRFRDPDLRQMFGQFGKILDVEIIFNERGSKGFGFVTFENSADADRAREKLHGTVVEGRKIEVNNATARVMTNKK
For `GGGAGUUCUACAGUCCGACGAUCUGGUGCUAUCCAAUUCCCAUCACUAGGAGGUGGCUGAGCUUGAGGCUUGCCAGACACAGGAAUGGCCCCGAUUAUGUCACCAAUAUUGUCACAUGUGGGCCAAGAAUAGAUGGAAUUCUCGGGUGCCAA`, “RBNS enrichment (R)” read 0.431.
`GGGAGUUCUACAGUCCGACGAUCCUGCCAUCCCAUAGAUUCUGAAGGGCUCCUCUCCUCCGGUCACGCUGACCAACUGCCAAGCUCGCUUUGCUGCCCAGAGCACUGUCCCCUCACAGCAAGCACAAGUUGUCUGGAAUUCUCGGGUGCCAA` — result for “RBNS enrichment (R)”: 0.711.
`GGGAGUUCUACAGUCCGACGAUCGGAGGCGAGAGGAAGGGGAGAACUUGGAGAAUAGUUUUUGCUUUGGGGGUAGAGGCUUCUUAGAUUCUCCCAGCAUCCGCCUUUCCCUUUAGCCAGUCUGCUGUCCUGAAUGGAAUUCUCGGGUGCCAA` — result for “RBNS enrichment (R)”: 1.41.
Under “RBNS enrichment (R)”, `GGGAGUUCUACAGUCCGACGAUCCCUCUGGGCACCAGGCGUGCACAUGGUAUACAGACAUAGGUGCAGACAAAACAUCUAUACGUACAGUACCACUAAUAAAUGUUGAGCUCCUGCUGUCCUGUUGGAAAGUUUGGAAUUCUCGGGUGCCAA` is recorded as 0.224.
Under “RBNS enrichment (R)”, `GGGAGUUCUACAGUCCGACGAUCGGAUGGAUGGCAGGGAAUAGAAGCUAGGACUGGAGUUCCUGUCCUGCCGCCUUGGUUCCUGCAGUGCCCUGCGGUGCGGACAGGACUGCAUCUGAUAGUACACAGACUGAUGGAAUUCUCGGGUGCCAA` is recorded as 0.606.
Under “RBNS enrichment (R)”, `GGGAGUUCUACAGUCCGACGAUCAAAUAACACAGUUGGGUGUAGGCAUGGUAAAUCUGAGCAGUCCAUCCUUAGUAUGGUGGAAAGAUUUGUACCCUGACCCGCUCGAGUGGUGGUAGAUGUAUGUAAAUUAGUGGAAUUCUCGGGUGCCAA` is recorded as 0.839.
Under “RBNS enrichment (R)”, `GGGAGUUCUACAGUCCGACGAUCCUUCCUGGUCUUGCCAGGCACCUGCACAGAGCGUCUCCAGCCCCAUCUCCUAACGGGGGCUGGGGGUAAGAGAAAUCUAACUGCGCUCCCCCAACCCCUCGCCCUGCCAUUGGAAUUCUCGGGUGCCAA` is recorded as 0.509.
`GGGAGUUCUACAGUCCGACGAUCGGUCAGGCUGCACUUCUGUUUCUGUCUUUUGCUCAACAGCGGGGUGUGCACUCGUGGCUGCACAGAUGAAGCCCAUGCUGAGUCUGUGGGAACACCCACACUCAGUGCACUGGAAUUCUCGGGUGCCAA` — result for “RBNS enrichment (R)”: 0.19.
`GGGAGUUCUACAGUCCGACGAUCUCCCAAGGAGCUUCGUGAACUGGCAGAGGCUGAAGCGAUCCAGUUGGGCCUCUCUUGACUAUAGCAGGCUGCUGCUGCGGCUUGUCUGGACACCUGGGGACUUCCCCGCCUGGAAUUCUCGGGUGCCAA`: “RBNS enrichment (R)” 0.316.

Set 2
Target: Ras GTPase-activating protein-binding protein 1, full length (G3BP1, Homo sapiens, UniProt Q13283)
Chain of UniProt Q13283 (whole entry, looked up): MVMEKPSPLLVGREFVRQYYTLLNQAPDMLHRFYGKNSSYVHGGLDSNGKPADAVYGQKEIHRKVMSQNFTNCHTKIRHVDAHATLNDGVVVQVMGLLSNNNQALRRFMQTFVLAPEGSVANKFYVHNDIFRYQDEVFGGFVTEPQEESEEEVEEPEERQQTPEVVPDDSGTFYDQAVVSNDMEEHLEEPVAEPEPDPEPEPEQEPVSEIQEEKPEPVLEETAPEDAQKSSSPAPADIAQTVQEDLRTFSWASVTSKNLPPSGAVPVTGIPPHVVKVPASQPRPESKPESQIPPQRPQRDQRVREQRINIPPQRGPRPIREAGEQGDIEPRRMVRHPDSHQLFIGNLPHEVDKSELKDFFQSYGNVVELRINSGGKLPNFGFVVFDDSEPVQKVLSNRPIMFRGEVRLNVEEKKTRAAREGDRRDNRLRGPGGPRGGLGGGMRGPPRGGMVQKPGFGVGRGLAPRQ
Method: RNA Bind-n-Seq
Molecule type: RNA
Matrix: in vitro
Concentration: 200 nM
Notes: whole 134-nt RNA, ends assumed
With: 150 mM KCl
Baseline: input library
Direction: higher = stronger binding
`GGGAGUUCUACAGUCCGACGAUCUUCAUUCUUACUUUGAAUCUAGGAUUUUAUGGAAGACCUUGGGUUAUGGAACAGAGAAAAGAACUCUUUAGAAGGUAAAUCUUCAUUAUAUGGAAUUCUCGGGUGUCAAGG` gave a log2 enrichment of -2.27.
`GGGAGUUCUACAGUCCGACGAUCCACAGACAACACGCACCCACACAGACACAGAGGGAAGGGGUUGGGAUGGCGACAGGGUGCACAGCAGGGCGGGGUAGGACCCCAGCCCCUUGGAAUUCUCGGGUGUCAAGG` gave a log2 enrichment of 1.43.
With `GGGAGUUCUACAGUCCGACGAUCUUCUCUUCACUCCCACCAGUGCGGGUGGUCUUUGCAGUGACUAUGGAAGGCAGUGCACGGAAAGUCAUCACUGUCCGGUCAGCCCUCAUUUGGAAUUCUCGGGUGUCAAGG` the log2 enrichment was -0.672.
The log2 enrichment of `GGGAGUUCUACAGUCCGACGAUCGUCCUGUGCUACACAUCGUAUGUACCGAAUCGGGGAAAAAGGGGUUUGGGGUUUGGGGAAAGUAUUAUGUUACGCCGUUCGGAUCUGCACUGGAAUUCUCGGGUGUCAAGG` is reported as 0.675.
With `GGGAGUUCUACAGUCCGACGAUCUCCUGUGCUACACAUCGUAUGUACCGAAUCGGGGUUUUUUGGGGUUUUUUGGUUUUUUGGAAAGUAUUAUGUUACGCCGUUCGGAUCUGCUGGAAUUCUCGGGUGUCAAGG` the log2 enrichment was -0.202.
For `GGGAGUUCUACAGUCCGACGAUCGUCCUGUGCUACACAUCGUAUGUACCGAAUCGGGGCCCCCGGGCCCCCGGGCCCCCGGGAAAGUAUUAUGUUACGCCGUUCGGAUCUGCAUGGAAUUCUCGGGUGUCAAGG`, the log2 enrichment was -0.757.
The log2 enrichment of `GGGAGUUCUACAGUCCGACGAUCUAGCCCUGGUGGCAUGCGGGGAGGAAGAGGUGGCCUCAUGGAUCGUGGUGGUCCCGGUGGAAUGUUCAGAGGUGGCCGUGGUGGAGACAGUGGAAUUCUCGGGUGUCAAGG` is reported as 0.249.
`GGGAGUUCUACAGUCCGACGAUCCUGUGCUACACAUCGUAUGUACCGAAUCGGAAAAAAAGGGGAAAAAAAGGGGAAAAAAAGGAAAGUAUUAUGUUACGCCGUUCGGAUCUGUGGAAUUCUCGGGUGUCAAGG` gave a log2 enrichment of -0.805.
`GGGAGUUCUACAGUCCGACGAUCCAAGUCCUGUGCUACACAUCGUAUGUACCGAAUCGGGGAGGGGAGGGGUUUGGGGAAAGUAUUAUGUUACGCCGUUCGGAUCUGCACUUCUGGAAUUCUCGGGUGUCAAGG` gave a log2 enrichment of 1.12.
`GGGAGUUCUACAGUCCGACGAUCAAGUCCUGUGCUACACAUCGUAUGUACCGAAUCGGGUUUUUUUGGGUGGGUUUGGGAAAGUAUUAUGUUACGCCGUUCGGAUCUGCACUUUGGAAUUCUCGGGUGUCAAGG` has a log2 enrichment of 0.234.

Set 3
Target: Histone acetyltransferase KAT6A, winged helix 2, GST fusion (KAT6A, Homo sapiens, UniProt Q92794, residues 85-181)
Method: protein binding microarray
Molecule type: double-stranded DNA, one strand shown
Matrix: in vitro
Concentration: not given
Notes: 8-mer, flanks averaged, mean of 2 arrays, mostly near background
Baseline: not given
Direction: higher = stronger binding
Residues (chain): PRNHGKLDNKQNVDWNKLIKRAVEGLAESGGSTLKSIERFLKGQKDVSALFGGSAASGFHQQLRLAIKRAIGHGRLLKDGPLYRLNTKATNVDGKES
With `ATGACTCG` the E-score was -0.0644.
With `TCCGCGGA` the E-score was 0.208.
`AGAATCGC` has an E-score of 0.112.
With `CGTCCCAA` the E-score was 0.148.
For `GCACACGA`, the E-score was 0.0891.
The E-score of `CGAGAGCC` is reported as 0.0819.
For `CCTAACAC`, the E-score was 0.0795.
`ACCGTCGC` gave an E-score of 0.2.
For `CCTAAACG`, the E-score was 0.0864.
For `CATCTAGC`, the E-score was -0.0573.
`ACCTCGAC` gave an E-score of 0.114.
For `AAGCGAAA`, the E-score was -0.016.
With `CTTTGGCA` the E-score was -0.0347.
With `GGCCCGTA` the E-score was -0.0718.
With `AGAAGTCA` the E-score was 0.134.
`GTAGGCAA` gave an E-score of 0.0128.
The E-score of `AGTCCATC` is reported as -0.0914.
For `GCCAGTGA`, the E-score was -0.0385.

Set 4
Target: Phosphate system positive regulatory protein PHO4, full length, GST-tagged (PHO4, Saccharomyces cerevisiae, UniProt P07270, residues 1-312)
Method: competition protein-binding microarray
Molecule type: double-stranded DNA, one strand shown
Matrix: in vitro
Concentration: 2 µM
Notes: whole 60-bp probe, lowest competitor level
With: Cbf1 competitor, 0.05 µM
Direction: higher = stronger binding
Target sequence (chain): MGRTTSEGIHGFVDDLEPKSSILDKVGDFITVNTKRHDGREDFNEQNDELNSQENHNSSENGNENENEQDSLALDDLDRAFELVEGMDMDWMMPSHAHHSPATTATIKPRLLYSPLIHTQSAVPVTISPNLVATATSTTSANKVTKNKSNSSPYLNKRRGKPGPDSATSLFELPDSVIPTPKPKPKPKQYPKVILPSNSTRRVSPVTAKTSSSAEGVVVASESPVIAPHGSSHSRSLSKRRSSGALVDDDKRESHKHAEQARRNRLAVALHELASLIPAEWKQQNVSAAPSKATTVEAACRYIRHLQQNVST
`AAAGCGGTAATTTGGTCCGTGGGTGCAGATATCTATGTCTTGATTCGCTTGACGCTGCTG` has a fluorescence intensity of 7140 a.u.
The fluorescence intensity of `TAGAGCTTGCCTCGTCAGGTGATGACAAGTTGTAAAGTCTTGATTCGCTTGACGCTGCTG` is reported as 3770 a.u.
With `TGTTGTAATTTTTGGCATGTGCTATTGTATGAAGATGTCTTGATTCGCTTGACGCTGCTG` the fluorescence intensity was 13100 a.u.
For `TAACATAGAATTCTTCACGTGGTCGAAATATGTATAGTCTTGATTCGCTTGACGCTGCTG`, the fluorescence intensity was 16300 a.u.
`CGGGGTTAAGTTTGAGGAGTGGGTGGCTTGCAGCAGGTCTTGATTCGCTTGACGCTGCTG` has a fluorescence intensity of 5250 a.u.
`GGGAAACGCCCAGAGCACGTGCTCCTGCCCGACACCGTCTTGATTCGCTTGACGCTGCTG` has a fluorescence intensity of 19500 a.u.
The fluorescence intensity of `TAATGTCAATATTCACACGTCGTTATAAGCAGCTAAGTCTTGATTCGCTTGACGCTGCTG` is reported as 4960 a.u.
`GGAGATAGCCTTTTGAGCGTGATGGCTCTTTCTATAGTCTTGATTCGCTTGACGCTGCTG` has a fluorescence intensity of 4590 a.u.
For `GATGCCGAAGATTTCCATGTGGCTGAGGAAGTTAAAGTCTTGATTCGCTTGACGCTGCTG`, the fluorescence intensity was 6560 a.u.
The fluorescence intensity of `AAGTGATGAGAATCGCACGTCTAGATAATGGCAGTAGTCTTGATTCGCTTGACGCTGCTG` is reported as 5640 a.u.
`CGGGGTTAAGTTTGAATAGTGGGTGGCTTGCAGCAGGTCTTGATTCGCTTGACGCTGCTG` has a fluorescence intensity of 4380 a.u.
`AAAGCGGTAATTTGTCACACGACTTCACATATCTATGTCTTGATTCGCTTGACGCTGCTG` gave a fluorescence intensity of 5710 a.u.
The fluorescence intensity of `TTATATCCGACGTCCCACGTGTCGGCGAAGCTCGGAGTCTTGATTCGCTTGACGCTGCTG` is reported as 18200 a.u.
The fluorescence intensity of `GTTAATGATATGTTTCACGTGGTGAGATTTTTTTTGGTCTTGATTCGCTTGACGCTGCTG` is reported as 13700 a.u.
`TTTTTCCCTAGAAAAATCGTGCTAACAGGTATATCAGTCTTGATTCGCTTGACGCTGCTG` has a fluorescence intensity of 6430 a.u.
The fluorescence intensity of `GATAAGCTAACGAACCTCATGACGCACAAGGACGAAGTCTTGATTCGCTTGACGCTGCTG` is reported as 6770 a.u.
With `GTAGTCCTGAGCCAACGCATGCCGGTTTTGTTGGTGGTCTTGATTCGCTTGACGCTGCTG` the fluorescence intensity was 8190 a.u.
The fluorescence intensity of `CGCCCGTATTCGGGCAACGTGAGCCCAAATACGCCTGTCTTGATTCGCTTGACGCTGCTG` is reported as 8710 a.u.
`TTAAAACAGAATCGGCACGTGTCCTGATTGCTTCCGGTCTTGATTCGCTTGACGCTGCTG` gave a fluorescence intensity of 16300 a.u.
With `GTAGCAGAGGTGGTTCCCGTGGAGGTTCCAGAGGTGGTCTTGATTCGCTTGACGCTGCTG` the fluorescence intensity was 6550 a.u.
The fluorescence intensity of `CATACCCAACCTTGTCCCGTGGGTGAAGATATTTGTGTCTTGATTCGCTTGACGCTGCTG` is reported as 11800 a.u.
The fluorescence intensity of `TTACAGATAATGGTGCATGTGATAGGCTTCGTACCAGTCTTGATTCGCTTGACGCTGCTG` is reported as 8970 a.u.
`CTAACGAAGGTTTGTGCGGTGGGTGACAAGCCAAGTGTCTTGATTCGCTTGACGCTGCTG` gave a fluorescence intensity of 4740 a.u.
`ACCTGAAATGATTGACCTGTACAGAGGGTTACCTATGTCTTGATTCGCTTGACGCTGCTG` gave a fluorescence intensity of 3630 a.u.
The fluorescence intensity of `AGTCTTGTCTGAAACCATGTGGGACACCAAGAAGGAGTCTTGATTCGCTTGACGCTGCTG` is reported as 9750 a.u.
